Assay results from different studies.
Numbered parts are unrelated; each lists some results of a single study. Changes are numbered by the printed parent chain.

Set 1
Target: ABI1, truncated, D143A, DHFR fusion (Arabidopsis thaliana)
Technique: DHFR PCA, deep sequencing
Sample: yeast
Setting: methotrexate growth selection, single substitutions
With: (+)-ABA 0.39 µM
Relative to: wild-type fitted maximum
Direction: higher = stronger binding
Starting sequence: PYL1, truncated, DHFR fusion (Arabidopsis thaliana); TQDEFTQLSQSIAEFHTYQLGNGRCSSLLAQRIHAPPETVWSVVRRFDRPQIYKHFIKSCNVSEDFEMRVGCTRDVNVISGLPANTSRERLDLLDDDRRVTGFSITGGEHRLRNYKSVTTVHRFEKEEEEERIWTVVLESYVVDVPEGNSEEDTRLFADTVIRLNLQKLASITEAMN
Variant	relative binding score [%]
V100W	-4.7
R155G	-28.6
E89V	-5.03
Q31S	0.613
E151M	35.5
Y141P	-3.83
R45D	-5.6
R24V	23.2
S104W	-8.53
D144S	-12.9
R163D	-14.4
T119V	-4.67
R155S	-4.45
R46N	-13.1
S104N	4.79
L29I	47.6

Set 2
Target: CCNA2, cyclin fold, Cln2 fusion (human)
Technique: yeast growth competition, sequencing
Sample: yeast
Setting: weak parent motif
Relative to: not given
Direction: higher = stronger binding
Starting sequence: FZR1 docking peptide (human); QDYERRLLRQIVI
Variant	normalised enrichment score
QDYERRLLRAIVI [Q10A]	0.169
QDYERRLARQIVI [L8A]	0.407
QDAERRLLRQIVI [Y3A]	0.922
QDYERRLLRQIVA [I13A]	0.644
QDYARRLLRQIVI [E4A]	1.94
QDYERALLRQIVI [R6A]	0.741
QDYERRLFRQIVI [L8F]	1.1
QDYEARLLRQIVI [R5A]	-0.242

Set 3
Target: NFE2L1, bZIP domain (human)
Technique: DHFR protein complementation
Sample: yeast
Setting: single substitutions, most at no-binding floor
Relative to: wild-type JUN-FOS pair
Direction: higher = stronger binding
Starting sequence: JUN, bZIP domain (human); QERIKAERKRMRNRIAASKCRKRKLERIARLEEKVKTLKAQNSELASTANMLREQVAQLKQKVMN; partner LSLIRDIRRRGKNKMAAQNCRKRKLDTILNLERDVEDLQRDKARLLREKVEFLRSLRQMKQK
Variant	binding fitness [natural log]
T37W	-1.45
L45R	-1.47
L38A	-1.51
A46H	-1.59
L52K	-1.57
R53N	-1.45
E32N	-1.34
E44N	-1.59
K36V	-1.46
N42R	-1.45
A46P	-1.5
A29R	-1.45
E44W	-1.52
M51I	-1.68
S43A	-1.5
A40R	-1.46
T37P	-1.53
L31Q	-1.41

Set 4
Target: Ras GTPase-activating protein-binding protein 1, full length (G3BP1, Homo sapiens, UniProt Q13283)
UniProt Q13283, sequence (whole entry, looked up): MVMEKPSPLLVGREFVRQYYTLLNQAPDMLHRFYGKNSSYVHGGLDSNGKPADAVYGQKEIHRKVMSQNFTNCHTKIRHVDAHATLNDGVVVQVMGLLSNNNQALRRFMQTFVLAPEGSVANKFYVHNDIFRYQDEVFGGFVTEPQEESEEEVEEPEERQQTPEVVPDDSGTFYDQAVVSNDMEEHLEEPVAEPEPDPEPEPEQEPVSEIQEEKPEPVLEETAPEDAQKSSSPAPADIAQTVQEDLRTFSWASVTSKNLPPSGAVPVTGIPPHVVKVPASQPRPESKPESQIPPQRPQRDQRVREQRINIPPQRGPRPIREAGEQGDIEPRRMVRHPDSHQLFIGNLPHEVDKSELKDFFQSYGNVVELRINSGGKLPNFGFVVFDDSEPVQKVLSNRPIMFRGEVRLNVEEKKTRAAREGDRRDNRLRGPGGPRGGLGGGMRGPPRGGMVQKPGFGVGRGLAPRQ
Technique: RNA Bind-n-Seq
Form: RNA
Sample: in vitro
Tested at: 200 nM
Setting: whole 134-nt RNA, ends assumed
With: 150 mM LiCl
Relative to: input library
Direction: higher = stronger binding
All molecules: 7-deaza-guanosine replaces G
Shared flanks, not repeated: GGGAGUUCUACAGUCCGACGAUC … UGGAAUUCUCGGGUGUCAAGG
Oligonucleotide	log2 enrichment
CUCAAGUCCUGUGCUACACAUCGUAUGUACCGAAUCGGAAAAAAAGGAGGAGGAAAGUAUUAUGUUACGCCGUUCGGAUCUGCACUUCCA	-0.328
GCAGGAAGUAACAACAAAUGGAAAUGCUUCGGAUAGUGGCAGGGGUGGGGGUUGCUAAGGAAAGGGUGGGAUGGGAGUGGGUAAAGAGUU	-0.205
ACCAUGCAGGUGGGCAUCUUUGGGAAGUGUGGCAAGGGGGGGAUAGGGAGGGGGGUAACACUUUGGGAACAGGUGGUCCCAGGUCGUUUC	0.411
CCUCAAGUCCUGUGCUACACAUCGUAUGUACCGAAUCGGUUUGGAGGUUUGGAAAGUAUUAUGUUACGCCGUUCGGAUCUGCACUUCCAG	-0.711
UGGCCCUGGUGGCAUGCGGGGAGGAAGAGGUGGGCUCAUGGAUCGUGGUGGUCCCGGUGGAAUGUUCAGAGGUGGCCGUGGUGGAGACAG	0.706
UCAAGUCCUGUGCUACACAUCGUAUGUACCGAAUCGGGCCGGGGCCGGCCGGGGAAAGUAUUAUGUUACGCCGUUCGGAUCUGCACUUCC	0.493
CCUGUGCUACACAUCGUAUGUACCGAAUCGGGUUUUUGGGAAAAAAAGGGAAAAAAAGGGAAAGUAUUAUGUUACGCCGUUCGGAUCUGC	-1.01
CACAGACAACACGCACCCACACAGACACAGAGGGAAGGGGUUGGGAUGGGGACACGGUGCACAGCAGGGCGGGGUAGGACCCCAGCCCCU	0.3
GUCCUGUGCUACACAUCGUAUGUACCGAAUCGGUUUUUGGUUUUUUUGGAAAAAAAGGAAAGUAUUAUGUUACGCCGUUCGGAUCUGCAC	-1.69
UGGCCCUGGUGGCAUGCGGGCAGGAAGAGGUGGCCUCAUGGAUCGUGGUGGUCCCGGUGGAAUGUUCAGAGGUGGCCGUGGUGGAGACAG	0.322
UGGGAGGUGGAUUUUGUUUAUUUUUUUAGCUCAUUUCCAGGGGUGGGCAUUUUUUUUUAAUAUGUGUCAUGAAUAAAGUUGUUUUUGAAA	-0.469

Set 5
Target: UBE2O UBC core domain (UniProt Q9C0C9)
Technique: yeast two-hybrid
Sample: yeast
Setting: mostly zero background
Relative to: not given
Direction: higher = stronger interaction
B1: IRF2BPL RING domain (UniProt Q9H1B7); chain SPMANSGPLCCTICHERLEDTHFVQCPSVPSHKFCFPCSRESIKAQGATGEVYCPSGEKCPLVGSNVP
B2: TRIM8 RING domain (UniProt Q9BZR9); chain WKNCFEEELICPICLHVFVEPVQLPCKHNFCRGCIGEAWAKDSGLVRCPECNQAYNQKPGLE
B3: TRIM72 RING domain (UniProt Q6ZMU5); chain APGLLHQELSCPLCLQLFDAPVTAECGHSFCRACLGRVAGEPAADGTVLCPCCQAPTRPQALST
B4: CUL9 RING domain (UniProt Q8IWT3); chain AQAVPVRPDHCPVCVSPLGCDDDLPSLCCMHYCCKSCWNEYLTTRIEQNLVLNCTCPIADCPAQPTGAFIR
Target sequence (chain): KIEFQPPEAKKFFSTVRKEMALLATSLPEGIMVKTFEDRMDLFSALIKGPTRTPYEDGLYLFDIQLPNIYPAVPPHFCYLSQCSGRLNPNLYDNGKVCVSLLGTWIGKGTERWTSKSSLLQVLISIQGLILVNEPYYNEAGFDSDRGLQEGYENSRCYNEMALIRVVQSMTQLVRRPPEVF
Molecule	lacZ reporter activity
DDENSDNSNECVVCLSDLRDTLILPCRHLCLCTSCADTLRYQANNCPICRLPFRALLQIR (MGRN1 RING domain (UniProt O60291))	0
QHHELTSLFECPVCFDYVLPPILQCQAGHLVCNQCRQKLSCCPTCRGALTPSIRNL (SIAH2 RING domain (UniProt O43255))	0
RLTMMWEEVTCPICLDPFVEPVSIECGHSFCQECISQVGKGGGSVCPVCRQRFLLKNLRP (TRIM21 RING domain (UniProt P19474))	0
QLQDIKEQTMCPVCLDRLKNMIFLCGHGTCQLCGDRMSECPICRKAIERRILLY (MIB1 RING domain (UniProt Q86YT6))	0
FASPPDSNFVCSVCHGVLKRPARLPCSHIFCKKCILRWLARQKTCPCCRKEVKRKKVVH (RNF151 RING domain (UniProt Q2KHN1))	0
B1 (IRF2BPL RING domain)	0
B2 (TRIM8 RING domain)	0
YWAMDSTFELCKICAESNKDVKIEPCGHLLCSCCLAAWQHSDSQTCPFCRCEIKGWEAVS (CBLC RING domain (UniProt Q9ULV8))	0
B3 (TRIM72 RING domain)	0
B4 (CUL9 RING domain)	0

For quick reference, copied from above (set 3):
Variant	binding fitness [natural log]
A46H	-1.59
L52K	-1.57
R53N	-1.45
E32N	-1.34
E44N	-1.59
K36V	-1.46
N42R	-1.45
A46P	-1.5
A29R	-1.45
E44W	-1.52
